Measurements of several laboratories.
Each numbered part is a random draw from the data of one study; scales do not carry over between parts.

Block 1 — read-out: enzyme activity; action: inhibitor; concentration: 0.5 µM; baseline: control; endpoint: remaining activity
Target: Ephrin type-A receptor 8 (EPHA8, Homo sapiens, UniProt P29322)
Nc1ncnc2c1cnn2-c1ccccc1: 90.5%
CC#CC(=O)Nc1cc2c(Nc3ccc(F)c(Cl)c3)ncnc2cn1: 100%
Nc1nc(Nc2ccc(S(N)(=O)=O)cc2)nn1C(=O)c1c(F)cccc1F: 109%
CCc1[nH]c(-c2ccc(OC)cc2)nc1-c1ccncc1: 93.5%
CCCC(=O)Oc1ccc2[nH]c(C(=O)c3cc4ccccc4[nH]3)cc2c1: 98%
NC(=O)c1ccc(N(C(N)=O)c2c(F)cccc2F)nc1-c1ccc(F)cc1F: 98.7%
COc1ccc(S(=O)(=O)N(CCO)c2ccccc2CN(C)CC=Cc2ccc(Cl)cc2)cc1: 100%
Cc1cc(Nc2nc(-c3ccccc3)nc3ccccc23)n[nH]1: 98.2%
Fc1ccc(-c2nc3n(c2-c2ccncc2)CCS3)cc1: 88.2%
O=C1Cc2c([nH]c3ccc([N+](=O)[O-])cc23)-c2ccccc2N1: 104%
Cc1cncc2cccc(S(=O)(=O)N3CCCN(C(=O)CN)C[C@@H]3C)c12: 95%
CC(=O)c1ccc(N2CCOCC2)cc1O: 101%
COc1cc(Nc2c(C#N)cnc3cc(OCCCN4CCN(C)CC4)c(OC)cc23)c(Cl)cc1Cl: 10.5%
CC[n+]1c(/C=C/N(C)c2ccccc2)n(-c2ccccc2)c2ccc(-c3nc4ccccc4s3)cc21: 96.3%
Oc1ccc(Nc2nc(-c3ccc(Cl)cc3)cs2)cc1: 93.4%
N#CC(=C(N)Sc1ccc(N)cc1)c1ccccc1C(F)(F)F: 94.1%
CSc1nc(-c2ccnc(N[C@@H](C)c3ccccc3)c2)c(-c2ccc(F)cc2)[nH]1 (racemic): 82.2%
O=C1NC(=O)C(c2c[nH]c3ccccc23)=C1c1c[nH]c2ccccc12: 103%
Nc1nccc(-c2c(-c3ccc(F)cc3)ncn2C2CCNCC2)n1: 101%
Cc1ccc(NC2=CC(=O)c3sc(C)nc3C2=O)cc1: 94.1%

Block 2 — read-out: cell-free assay; technique: competition with immobilised ligand; concentration: 1 µM; endpoint: remaining binding
Compound: CS(=O)(=O)c1cc(C2(NC(=O)c3cncc4c3cnn4-c3ccc(F)cc3)CC2)ccn1
Ephrin type-A receptor 5 (EPHA5, Homo sapiens, UniProt P54756): 100%
Non-receptor tyrosine-protein kinase TNK1 (TNK1, Homo sapiens, UniProt Q13470): 80%
Tyrosine-protein kinase ABL1, phosphorylated (ABL1, Homo sapiens, UniProt P00519, H396P): 100%
Serine/threonine-protein kinase RIO2 (RIOK2, Homo sapiens, UniProt Q9BVS4): 94%
Receptor-interacting serine/threonine-protein kinase 4 (RIPK4, Homo sapiens, UniProt P57078): 87%
Serine/threonine-protein kinase RIO3 (RIOK3, Homo sapiens, UniProt O14730): 100%
Epidermal growth factor receptor (EGFR, Homo sapiens, UniProt P00533): 100%
Dual serine/threonine and tyrosine protein kinase (DSTYK, Homo sapiens, UniProt Q6XUX3): 70%
Serine/threonine-protein kinase MRCK alpha (CDC42BPA, Homo sapiens, UniProt Q5VT25): 100%
Mitogen-activated protein kinase kinase kinase kinase 3 (MAP4K3, Homo sapiens, UniProt Q8IVH8): 87%
Tyrosine-protein kinase ABL1, non-phosphorylated (ABL1, Homo sapiens, UniProt P00519, H396P): 100%
Tyrosine-protein kinase BTK (BTK, Homo sapiens, UniProt Q06187): 97%
Cyclin-dependent kinase 18 (CDK18, Homo sapiens, UniProt Q07002): 100%
Hepatocyte growth factor receptor (MET, Homo sapiens, UniProt P08581): 100%
Tyrosine-protein kinase FRK (FRK, Homo sapiens, UniProt P42685): 58%
Phosphatidylinositol 3-kinase catalytic subunit type 3 (PIK3C3, Homo sapiens, UniProt Q8NEB9): 86%
Serine/threonine-protein kinase D2 (PRKD2, Homo sapiens, UniProt Q9BZL6): 97%
Dual specificity tyrosine-phosphorylation-regulated kinase 2 (DYRK2, Homo sapiens, UniProt Q92630): 95%
Tyrosine-protein kinase TXK (TXK, Homo sapiens, UniProt P42681): 89%
Epidermal growth factor receptor (EGFR, Homo sapiens, UniProt P00533, del747-752/P753S): 66%
Phosphatidylinositol 4-phosphate 5-kinase type-1 alpha (PIP5K1A, Homo sapiens, UniProt Q99755): 100%
Epidermal growth factor receptor (EGFR, Homo sapiens, UniProt P00533, L858R): 100%
Myosin light chain kinase family member 4 (MYLK4, Homo sapiens, UniProt Q86YV6): 85%
Proto-oncogene tyrosine-protein kinase receptor Ret (RET, Homo sapiens, UniProt P07949, M918T): 100%
Tyrosine-protein kinase ABL1, phosphorylated (ABL1, Homo sapiens, UniProt P00519, Q252H): 100%

Block 3 — organism: Sarcocystis neurona; read-out: parasite growth; concentration: 10 µM; time: 96 h; notes: first screen; endpoint: inhibition
CCS(=O)(=O)CCn1c([N+](=O)[O-])cnc1C: 4.3%
CCN1CCN(c2cc3c(cc2F)c(=O)c(C(=O)O)cn3C2CC2)CC1: 16.6%
CC(Oc1c(Cl)cccc1Cl)C1=NCCN1 (centres unmarked): 7.7%
O=C(O)Cc1ccccc1Nc1c(Cl)cccc1Cl: -6.2%
CCn1cc(C(=O)O)c(=O)c2cc(F)c(N3CCNCC3)cc21: -1.8%
CCC(=O)NS(=O)(=O)c1ccc(-c2c(-c3ccccc3)noc2C)cc1: -0.6%
CC(C)NCC(O)c1ccc(NS(C)(=O)=O)cc1 (centres unmarked): -4%
C[C@H](CS)C(=O)N1CCC[C@H]1C(=O)O: -15.4%
C[C@H](CCC(=O)O)[C@H]1CC[C@H]2[C@@H]3C(=O)C[C@@H]4CC(=O)CC[C@]4(C)[C@H]3CC(=O)[C@]12C: 9.5%
COc1c(N2CCNC(C)C2)c(F)cc2c(=O)c(C(=O)O)cn(C3CC3)c12 (centres unmarked): -22.8%
[H]/N=C(/NC)NCCC[C@H](N)C(=O)O: -2.4%
N[C@@H](C(=O)N[C@@H]1C(=O)N2C(C(=O)O)=C(CSc3c[nH]nn3)CS[C@H]12)c1ccc(O)cc1: 3.2%
COc1ccc(-c2oc3c(CC=C(C)C)c(O[C@@H]4O[C@H](CO)[C@@H](O)[C@H](O)[C@H]4O)cc(O)c3c(=O)c2O[C@@H]2O[C@@H](C)[C@H](O)[C@@H](O)[C@H]2O)cc1: -0.223%
COC(=O)C1=C(C)NC(C)=C(C(=O)OC)C1c1ccccc1[N+](=O)[O-]: 6.7%
C=CC1=C(C(=O)O)N2C(=O)[C@@H](NC(=O)/C(=N\O)c3csc(N)n3)[C@H]2SC1: -23.2%
c1ccc2c(CC3=NCCN3)cccc2c1: -9.8%
CN(C)CCCC1(c2ccc(F)cc2)OCc2cc(C#N)ccc21 (centres unmarked): 2.4%
Cn1c(=O)c2[nH]cnc2n(C)c1=O: -4.4%
CC1CNc2c(cccc2S(=O)(=O)N[C@@H](CCCNC(=N)N)C(=O)N2CC[C@@H](C)C[C@@H]2C(=O)O)C1 (some centres unmarked): 14.2%
CN(C)c1nc(N(C)C)nc(N(C)C)n1: -21.9%
O=C(C1CCCCC1)N1CC(=O)N2CCc3ccccc3C2C1 (centres unmarked): 26.9%
Cc1nnc(SCC2=C(C(=O)O)N3C(=O)[C@@H](NC(=O)Cn4cnnn4)[C@H]3SC2)s1: -15.2%
CCN(CC)CC1CCCCN1CC(=O)N1c2ccccc2C(=O)Nc2cccnc21 (centres unmarked): -1.7%
CC(C)NCC(O)COc1ccc(COCCOC(C)C)cc1 (centres unmarked): -8%
O=c1c(O[C@@H]2O[C@H](CO)[C@H](O)[C@H](O)[C@H]2O)c(-c2ccc(O)c(O)c2)oc2cc(O)cc(O)c12: 3.2%

Block 4 — cell line: A-375; concentration: 100 µM; time: 18 h; endpoint: viability
O=C(CCCCCCC(=O)Nc1ccccc1)NO: 64.5%
Cc1cc(C)cc(OCC2CNC(=O)O2)c1 (centres unmarked): 96.4%
CCN(CC)C(=O)c1ccc(O)c(OC)c1: 86.4%
CCOC(N)=O: 108%
COc1ccc2cc(CCC(C)=O)ccc2c1: 82.2%
COc1ccc(CN2CCN(C(c3ccc(F)cc3)c3ccc(F)cc3)CC2)c(OC)c1OC: 50.8%
c1ccc(CC2=NCCN2)cc1: 65.2%
CC(C)(Oc1ccc(Cl)cc1)C(=O)OCCOC(=O)c1cccnc1: 77.5%
CN(C)CCC(c1ccc(Cl)cc1)c1ccccn1 (centres unmarked): 108%
Cc1ccc(C(=O)c2ccc(CC(=O)O)n2C)cc1: 97.5%
NCCCCCC(=O)O: 87%
CC(C)(C(=O)c1cccnc1)c1cccnc1: 101%
C[C@H]1CC[C@@]2(O)C(C)(C)[C@@H]3CC[C@@]2(C)[C@H]1C3: 23.9%

Repeated from above (block 3):
CCN1CCN(c2cc3c(cc2F)c(=O)c(C(=O)O)cn3C2CC2)CC1: 16.6%
CC(Oc1c(Cl)cccc1Cl)C1=NCCN1 (centres unmarked): 7.7%
O=C(O)Cc1ccccc1Nc1c(Cl)cccc1Cl: -6.2%
CCn1cc(C(=O)O)c(=O)c2cc(F)c(N3CCNCC3)cc21: -1.8%
CCC(=O)NS(=O)(=O)c1ccc(-c2c(-c3ccccc3)noc2C)cc1: -0.6%
CC(C)NCC(O)c1ccc(NS(C)(=O)=O)cc1 (centres unmarked): -4%
C[C@H](CS)C(=O)N1CCC[C@H]1C(=O)O: -15.4%
C[C@H](CCC(=O)O)[C@H]1CC[C@H]2[C@@H]3C(=O)C[C@@H]4CC(=O)CC[C@]4(C)[C@H]3CC(=O)[C@]12C: 9.5%
